Published values gathered from unrelated publications.
Each numbered part is a random draw from the data of one study; scales do not carry over between parts. Positions count from the first letter of the parent shown.

Series 1 — technique: DHFR PCA, deep sequencing; matrix: yeast; added: (+)-ABA 0.0091 µM; relative to: wild-type fitted maximum; direction: higher = stronger binding
Target: ABI1, truncated, D143A, DHFR fusion (Arabidopsis thaliana)
Setting: methotrexate growth selection, single substitutions
Starting sequence: PYL1, truncated, DHFR fusion (Arabidopsis thaliana); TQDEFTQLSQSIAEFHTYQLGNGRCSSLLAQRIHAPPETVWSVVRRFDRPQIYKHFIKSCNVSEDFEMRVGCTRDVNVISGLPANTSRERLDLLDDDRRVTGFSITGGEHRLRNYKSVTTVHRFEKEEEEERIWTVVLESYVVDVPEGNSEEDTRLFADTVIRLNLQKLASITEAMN
Change | relative binding score [%]
V145M | 0.204
Q167E | 42.7
Q7S | 27.5
T73S | 4.99
T173I | 4.65
D75F | 19.3
T160V | -2.29
F157S | 1.09
F124L | 42
S27W | -0.341
E128S | 35.3
V143A | 3.35
P83S | 27.5
P37F | -4.44
G23H | 9.27
S26P | 1.88
E129R | 14
E14R | 2.29
Q10E | 45.9
L20Q | 35.7

Series 2 — target: CRIPT, C-terminal peptide; technique: DHFR complementation, deep sequencing; matrix: yeast; relative to: wild type; direction: higher = weaker binding
Setting: single substitutions, model-inferred values
Starting sequence: ERBIN, PDZ domain 1 (human); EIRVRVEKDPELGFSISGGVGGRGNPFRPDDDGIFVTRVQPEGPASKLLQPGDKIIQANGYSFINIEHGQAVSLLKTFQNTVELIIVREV; partner TKNYKQTSV
Change | binding free energy change [kcal/mol]
V90N | -0.071
K54A | 0.431
I56W | 0.0715
S15M | 0.263
N80Y | 0.173
F78I | 0.433
Q50D | 0.104
L75F | 0.058
L49W | 0.483
S62L | 0.161
S62F | 0.0815
V87R | 0.00677
Q79W | 0.123
S46L | 0.199
G52P | 0.538
D9H | 0.112
S17W | 1.44
G19L | 1.21
Y61V | 0.0387
L75I | 0.228
E11L | -0.508

Series 3 — technique: protein binding microarray; form: double-stranded DNA, one strand shown; matrix: in vitro; concentration: not given; relative to: not given; direction: higher = stronger binding
Target: Histone acetyltransferase KAT6A, winged helix 1, GST fusion (KAT6A, Homo sapiens, UniProt Q92794, residues 1-85)
Setting: 8-mer, flanks averaged, mean of 2 arrays, mostly near background
Residues (chain): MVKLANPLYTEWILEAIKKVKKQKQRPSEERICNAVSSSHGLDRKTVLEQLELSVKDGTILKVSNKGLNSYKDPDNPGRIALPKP
Oligonucleotide | E-score
CTCCCACA | -0.115
ATATCGTG | 0.0199
CTCCATTC | -0.182
ACAGGTGG | -0.189
ATTCACCG | 0.212
CCGTGTGC | 0.262
GCATCGAA | -0.05
AGAGGACC | -0.0988
CATCTGCA | -0.158
CCACCCAC | -0.142
ACCAGGGT | -0.21
TAAGCGGA | 0.00717
ATCTGTTC | -0.138
AAACCTCA | -0.128
AGCCACAA | -0.0799
AGCTTAGA | -0.0913
ATATGGTA | -0.149
CGTTTTAC | 0.00554
CCATAACC | -0.11
GGAGAGAA | -0.159
TCCGACCA | 0.088
CGATGATA | 0.0664
GCGGTCCA | 0.235
ACACCGCC | 0.187

Series 4 — technique: RNA Bind-n-Seq; form: RNA; matrix: in vitro; concentration: not given; relative to: input RNA pool; direction: higher = stronger binding
Target: RING finger protein unkempt homolog, zinc fingers 1-6, GST-SBP tag (UNK, Homo sapiens, UniProt Q9C0B0, residues 30-357)
Chain of UniProt Q9C0B0 (30-357, looked up): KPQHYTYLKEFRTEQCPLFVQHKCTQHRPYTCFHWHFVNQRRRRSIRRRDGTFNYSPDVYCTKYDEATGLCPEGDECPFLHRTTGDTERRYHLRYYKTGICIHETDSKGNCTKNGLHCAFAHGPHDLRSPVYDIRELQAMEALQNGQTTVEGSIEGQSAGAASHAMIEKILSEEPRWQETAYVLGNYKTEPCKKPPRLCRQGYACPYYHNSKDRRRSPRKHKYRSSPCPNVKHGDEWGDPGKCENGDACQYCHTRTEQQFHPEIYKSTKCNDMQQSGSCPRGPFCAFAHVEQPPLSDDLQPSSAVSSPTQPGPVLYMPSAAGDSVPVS
Setting: RNA with constant flanks, human-mouse chimeric sites, ends assumed
Shared flanks, not repeated: GGGAGUUCUACAGUCCGACGAUC … CAACAGAGGAUUGAGCAUCA
Oligonucleotide | bound/input enrichment [ratio]
AUGGAACAUUUUGAUGCGUCACUCAGUACCUAUUUCAAGGCCUUCCUGGGCCCCCGAGAUACAAGAGUCAAAGGAUGGUUCCUCCUGGACAAUUAUAUCCCUACGUUUGUCUGUUCUGUU | 0.137
CUGUGUGUGCUGAAUAAAUGGCUUGUAAGAACUGUCCUCCAAGCUGUAACCCAUGCUGUUAUUAUAGUUGCUGCAAAAUGUUCUUCCUGAUAUUGAUGUUUGUUUACAACUGAAGGUCUC | 0.247
UCUUUAAAAAAAAAAUUACCUUUUCUGCAUAUUAUAGCCCUCCCAUAGAUCCACGUUCACACUAGAAGAGCAAAGGCUUUGCACGGAGCUCAAACAUCUGAUGAAGAAAGAUUUCUGAGA | 6.5
CAGCCUCAGAGCCCAGACUUCCUGGAUAUUACCAACCCUAAAGCGGUAUUAGAAAAUGCAUUGAGAAACUUUGCCUGUCUGACGACUGGAGAUGUGAUUGCUAUCAACUACAAUGAGAAG | 0.482
AUAAAAGCUAUGUUGAGUGGUCCAGGUCAGUUUGCUGAGAAUGAAACCAAUGAGGUCAAUUUUAGAGAGAUCCCCUCACAUGUGCUAUCAAAAGUGUGCAUGUAUUUUACCUACAAGGUC | 0.182
GUCAACAGCUGCCUCAACCCCAUCCUCUACGCCUUCCUGGAUGAGAACUUCAAGGCCUGCUUCCGCAAGUUCUGCUGUGCAUCUGCCCUGCGCCGGGAGAUGCAGGUUUCUGAUCGUGUG | 0.222
UCUUUAAAAAAAAAAUUACCUUUUCUGACAGUGCUUUAUGGAGUAAAGAUCCACGUUCAAGCUCAAAGGCCAAAACUUUUGCACGGAGCUCAAACAUCUGAUGAAGAAAGAUUUCUGAGA | 0.228
AUGGAGAAGGAUUCUCUGCCCCGCUUUGUGCGCUCUGAAUUUUAUAAGGAGCUAAUCAAGUAGUAAUCUGGUCAGGCUUCCAAAAGUUCCUGUGAGUGUUGAGUUACAUCCUUUGUAGCA | 0.227
CCUGCUCAGAUCACCAUGAAAGUAAUCCAAGGCCUAUACAGUGGGGUCACCACAGUGGAACUAGAUACCCUGGCUGCUGAGACAGCCGCGACCUUGACCACGAAGCACCCUGACUAUGCC | 0.163
ACACAAUAUGAGACCAACAGCAUGGACUUCAAAGUUGGGGCAGAUGGGACAGUCUUCGCCACUAGGGAGCUGCAGGUCCCCUCCGAGCAGGUGGCGUUCACGGUGACUGCAUGGGACAGC | 0.214
CAACCUCAGAGCCCAGACUUCCUGGAUAUUACCAACCCUAAAGCGGUAUUAGAAAAUGCAUUGAGAAACUUCGCCUGUCUGACGACUGGGGAUGUGAUUGCUAUCAACUACAAUGAGAAG | 0.345

Series 5 — target: CCNB1, cyclin fold, Cln2 fusion (human); technique: yeast growth competition, sequencing; matrix: yeast; setting: weak parent motif; relative to: not given; direction: higher = stronger binding
Starting sequence: E2F8 docking peptide (human); FVPQRKLEVSTED
Change | normalised enrichment score
R5K V9F | 0.556
Q4A | -0.421
E12A | 0.079
S10A | 0.329
V9F | 0.486
V9L | 0.112
K6A | 0.323
E8A | -0.0814
L7A | 0.381
V9A | -0.0921
R5A L7A | 0.0833

Series 6 — target: ATF3, bZIP domain (human); technique: DHFR protein complementation; matrix: yeast; relative to: wild-type JUN-FOS pair; direction: higher = stronger binding
Setting: single substitutions, most at no-binding floor
Starting sequence: JUN, bZIP domain (human); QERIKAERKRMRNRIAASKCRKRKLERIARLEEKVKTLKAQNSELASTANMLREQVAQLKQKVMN; partner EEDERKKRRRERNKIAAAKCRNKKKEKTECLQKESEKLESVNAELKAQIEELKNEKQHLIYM
Change | binding fitness
Q55S | -0.325 natural log
T37Q | 0.0395 natural log
L52G | -1.29 natural log
K39G | -0.504 natural log
K34E | -0.321 natural log
Q55E | 0.0188 natural log
A49K | -0.266 natural log
S43V | -0.126 natural log
T48K | -0.146 natural log
E44M | -0.191 natural log
T37S | -0.118 natural log
L52A | -1.26 natural log
S43C | -0.133 natural log
E54Q | -0.386 natural log
E33F | -0.296 natural log
K39P | -1.27 natural log

A few entries again (series 6):
Change | binding fitness
E44M | -0.191 natural log
L52A | -1.26 natural log
A49K | -0.266 natural log
L52G | -1.29 natural log
Q55E | 0.0188 natural log
E33F | -0.296 natural log
S43V | -0.126 natural log
E54Q | -0.386 natural log
K34E | -0.321 natural log
